# Measurements collected from several papers.
# Parts stem from different laboratories: compare values within a part only. Positions count from the first letter of the parent shown.

# Study 1 — target: CRIPT, C-terminal peptide; technique: DHFR complementation, deep sequencing; medium: yeast; baseline: wild type; reading: higher = weaker binding
# Notes: single substitutions, model-inferred values
# Starting sequence: ERBIN, PDZ domain 1 (human); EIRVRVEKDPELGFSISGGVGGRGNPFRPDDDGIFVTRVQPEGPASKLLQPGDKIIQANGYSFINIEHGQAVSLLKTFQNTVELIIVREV; partner TKNYKQTSV
Substitution,binding free energy change [kcal/mol]
I56Y,0.148
R38A,0.0575
E89S,0.0793
T77H,0.0413
K47F,0.19
P26S,0.859
P29V,0.112
I86T,0.294

# Study 2 — target: Sox, HMG box (Pigoraptor chileana); technique: Spec-seq; form: double-stranded DNA, one strand shown; medium: in vitro; concentration: not given; notes: whole probe, mean of replicates; baseline: not given; reading: lower = stronger binding; shared flanks, not repeated: GAGTCGTCTCGTCAGCAC … CCGTAGAGCACTCAGGTC
# Construct (chain): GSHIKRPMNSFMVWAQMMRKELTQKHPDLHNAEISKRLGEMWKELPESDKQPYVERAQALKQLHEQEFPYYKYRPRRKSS
Sequence,relative binding energy
AAGTGTT,-1.75 ln ratio
GTGGGTT,1.21 ln ratio
GTTGGTT,0.954 ln ratio
GCCAGTT,0.365 ln ratio
CATGCTT,0.701 ln ratio
CATGTCT,0.771 ln ratio
CATAGAC,-0.34 ln ratio
TCTCGTT,1.06 ln ratio

# Study 3 — technique: DHFR PCA, deep sequencing; medium: yeast; with: (+)-ABA 0.39 µM; baseline: wild-type fitted maximum; reading: higher = stronger binding
# Target: ABI1, truncated, D143A, DHFR fusion (Arabidopsis thaliana)
# Notes: methotrexate growth selection, single substitutions
# Starting sequence: PYL1, truncated, DHFR fusion (Arabidopsis thaliana); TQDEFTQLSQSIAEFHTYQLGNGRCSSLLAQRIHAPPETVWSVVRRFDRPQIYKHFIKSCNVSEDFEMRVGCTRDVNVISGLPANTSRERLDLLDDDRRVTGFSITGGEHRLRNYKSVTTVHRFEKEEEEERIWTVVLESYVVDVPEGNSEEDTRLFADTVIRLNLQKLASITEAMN; partner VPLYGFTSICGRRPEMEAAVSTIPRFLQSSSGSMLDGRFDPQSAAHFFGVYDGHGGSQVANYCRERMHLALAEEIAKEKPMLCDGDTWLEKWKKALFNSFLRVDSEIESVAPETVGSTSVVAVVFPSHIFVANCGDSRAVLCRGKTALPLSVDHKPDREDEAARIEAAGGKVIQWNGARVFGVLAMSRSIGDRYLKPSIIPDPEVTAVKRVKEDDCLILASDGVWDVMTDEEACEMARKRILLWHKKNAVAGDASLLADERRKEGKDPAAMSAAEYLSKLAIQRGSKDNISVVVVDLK
Substitution,relative binding score [%]
V161I,84.4
D159Y,-5.92
D92P,-3.95
T6N,45
R111M,11.4
E64S,49.3
S59R,12.7
H34F,37.1

# Further values, each from its own experiment — starting sequence: viral docking peptide; TSVRRALFTGGSD
Substitution,target,assay,system,conditions,how to read,quantity,result
TSVGRALFTGGSD [R4G],"CCND3, cyclin fold, Cln2 fusion (human)","yeast growth competition, sequencing",yeast,weak parent motif,"baseline: not given, higher = stronger binding",normalised enrichment score,-0.45

# Some of these lines once more (study 2):
Sequence,relative binding energy
CATGCTT,0.701 ln ratio
CATGTCT,0.771 ln ratio
AAGTGTT,-1.75 ln ratio
TCTCGTT,1.06 ln ratio
